Results collected from several papers.
Each line is one published result; not all experiments were run side by side. Values joined by “and” are separate records of one study, mostly repeats; a detail may differ. ± marks the error that the study gave.
UniProt Q64663, sequence (whole entry, unmodified, looked up): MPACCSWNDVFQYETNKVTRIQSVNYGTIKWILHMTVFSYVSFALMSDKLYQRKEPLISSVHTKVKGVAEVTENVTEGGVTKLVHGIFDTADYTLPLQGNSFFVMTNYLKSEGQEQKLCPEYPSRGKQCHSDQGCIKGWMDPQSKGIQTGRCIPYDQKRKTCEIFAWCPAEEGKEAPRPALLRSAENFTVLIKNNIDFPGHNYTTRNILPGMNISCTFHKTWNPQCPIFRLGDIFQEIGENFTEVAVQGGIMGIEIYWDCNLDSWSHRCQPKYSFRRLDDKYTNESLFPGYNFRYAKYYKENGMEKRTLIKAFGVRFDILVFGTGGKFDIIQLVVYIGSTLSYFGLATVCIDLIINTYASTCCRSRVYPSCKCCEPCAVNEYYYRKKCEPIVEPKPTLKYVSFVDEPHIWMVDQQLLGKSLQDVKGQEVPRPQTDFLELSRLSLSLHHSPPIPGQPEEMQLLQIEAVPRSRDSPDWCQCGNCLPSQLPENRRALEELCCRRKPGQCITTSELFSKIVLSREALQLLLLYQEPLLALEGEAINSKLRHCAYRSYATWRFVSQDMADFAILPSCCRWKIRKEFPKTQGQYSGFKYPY

| Substance | target or system | test | test system | setting | how to read | measurement | result |
| --- | --- | --- | --- | --- | --- | --- | --- |
| FNA / CGLSGLGVA-NH2 ([18F]FNA-labelled, C-amide) |  | ex vivo gamma counting | peptide, glioblastoma mouse model, ovaries | 60 min post injection, added: 500-fold excess CooP blocking |  | tissue uptake | 0.58 %ID/g |
| caspofungin |  |  | adult ICU patients, mITT, serum | dose not given, day 14 |  | aspartate aminotransferase | 29.8 U/L |
| coproporphyrin III |  | UHPLC-MS/MS | human, serum | oral, 20 mg ezetimibe, 5 h, geometric mean ezetimibe phase |  | serum concentration | 0.282 nM |
| Teicoplanin |  |  | stock solution | 10 months, -40 °C |  | recovery | 117% |
| [177Lu]Lu-DOTA-TATE |  | radio-HPLC | mouse serum | 24 h, 37 °C, 50 MBq/nmol |  | intact radiolabelled peptide | 98.1 ± 0.5% |
| Peginesatide | UT7/EPO | tyrosine phosphorylation, LC-MS/MS phosphoproteomics, GluC, refers to: JAK2 tyrosine 570 |  | 10 nM, 15 min, added: 10 U/mL EPO | baseline: vehicle | phosphorylation level | 9.8 fold |
| Polymyxin B |  | LC-MS | Sprague-Dawley rat, left hippocampus | intracerebroventricular, 0.75 mg/kg, 1 h |  | concentration | 1730 ng/mL and 510 ng/mL and 990 ng/mL and 220 ng/mL |
| BzATP | P2X purinoceptor 7 (P2rx7, Rattus norvegicus, UniProt Q64663, I214A/R125A) | ion current, agonist, two-electrode voltage clamp | Xenopus laevis oocytes | 11 µM | baseline: highest concentration response | normalized current | 0.38 and 0.3 and 0.37 |
| coproporphyrin I |  |  | human, plasma | baseline period |  | diurnal variation (Cmean-Cmin)/Cmean | 23.1 ± 3.7% |
| CTOP |  | RP-HPLC | HALO RP-amide column | 25 µM, acetic acid/acetonitrile, 25 min gradient |  | retention time | 7.46 min |
| regorafenib N-β-glucuronide |  |  | Oatp1b2 knockout mice | oral, 10 mg/kg regorafenib | baseline: wild-type mice | AUC | 5.6 fold |
| FGA (Homo sapiens, UniProt P02671) | KLC4 (Homo sapiens, UniProt Q9NSK0) | cross-linking MS |  | added: DSSO |  | cross-linked residues | K575 to K327 |
| coproporphyrin I |  | UHPLC-MS/MS | human, serum | oral, 20 mg ezetimibe, 1.33 h, geometric mean ezetimibe phase |  | serum concentration | 2.71 nM |
| 11-deoxycorticosterone | CYP11B2 (human) | substrate binding, stopped-flow global kinetic fitting | purified enzyme | 3-state conformational selection model, added: no adrenodoxin |  | rate constant k1 | 0.58 ± 0.0846 s⁻¹ |
| C-peptide |  | LC-MS/MS | pooled human serum, low level | 24 h, 4 °C, stability before sample preparation | baseline: untreated control | bias | 4% |
| colistin | Salmonella enterica Infantis | broth microdilution | clinical isolate RKI 277/14 |  |  | MIC | ≤ 0.5 µg/mL |
